Measurements gathered from unrelated publications.
Parts stem from different laboratories: compare values within a part only.
UniProt O15146, sequence (whole entry, looked up): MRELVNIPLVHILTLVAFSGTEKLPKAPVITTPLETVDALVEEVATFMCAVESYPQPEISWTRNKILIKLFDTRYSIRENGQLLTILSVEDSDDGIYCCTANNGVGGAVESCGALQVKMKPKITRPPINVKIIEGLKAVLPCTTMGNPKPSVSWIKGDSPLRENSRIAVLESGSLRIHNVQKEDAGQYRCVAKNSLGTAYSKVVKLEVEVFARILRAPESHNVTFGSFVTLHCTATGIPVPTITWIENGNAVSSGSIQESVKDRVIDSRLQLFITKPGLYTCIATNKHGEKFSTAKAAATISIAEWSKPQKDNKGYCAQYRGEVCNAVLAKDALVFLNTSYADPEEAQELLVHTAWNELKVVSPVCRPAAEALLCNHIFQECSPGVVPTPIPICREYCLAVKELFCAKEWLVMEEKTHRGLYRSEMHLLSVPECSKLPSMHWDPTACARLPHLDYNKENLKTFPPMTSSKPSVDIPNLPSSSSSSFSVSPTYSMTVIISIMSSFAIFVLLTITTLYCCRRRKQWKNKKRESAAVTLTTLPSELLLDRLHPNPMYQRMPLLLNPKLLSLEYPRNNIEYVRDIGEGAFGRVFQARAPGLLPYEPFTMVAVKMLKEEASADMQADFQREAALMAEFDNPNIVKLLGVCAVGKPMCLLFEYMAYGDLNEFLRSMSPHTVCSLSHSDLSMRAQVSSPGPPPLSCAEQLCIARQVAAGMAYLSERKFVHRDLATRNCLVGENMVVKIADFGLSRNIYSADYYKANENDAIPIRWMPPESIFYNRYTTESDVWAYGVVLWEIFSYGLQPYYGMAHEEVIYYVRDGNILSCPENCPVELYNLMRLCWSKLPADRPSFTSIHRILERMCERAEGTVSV
UniProt P51812, sequence (whole entry, looked up): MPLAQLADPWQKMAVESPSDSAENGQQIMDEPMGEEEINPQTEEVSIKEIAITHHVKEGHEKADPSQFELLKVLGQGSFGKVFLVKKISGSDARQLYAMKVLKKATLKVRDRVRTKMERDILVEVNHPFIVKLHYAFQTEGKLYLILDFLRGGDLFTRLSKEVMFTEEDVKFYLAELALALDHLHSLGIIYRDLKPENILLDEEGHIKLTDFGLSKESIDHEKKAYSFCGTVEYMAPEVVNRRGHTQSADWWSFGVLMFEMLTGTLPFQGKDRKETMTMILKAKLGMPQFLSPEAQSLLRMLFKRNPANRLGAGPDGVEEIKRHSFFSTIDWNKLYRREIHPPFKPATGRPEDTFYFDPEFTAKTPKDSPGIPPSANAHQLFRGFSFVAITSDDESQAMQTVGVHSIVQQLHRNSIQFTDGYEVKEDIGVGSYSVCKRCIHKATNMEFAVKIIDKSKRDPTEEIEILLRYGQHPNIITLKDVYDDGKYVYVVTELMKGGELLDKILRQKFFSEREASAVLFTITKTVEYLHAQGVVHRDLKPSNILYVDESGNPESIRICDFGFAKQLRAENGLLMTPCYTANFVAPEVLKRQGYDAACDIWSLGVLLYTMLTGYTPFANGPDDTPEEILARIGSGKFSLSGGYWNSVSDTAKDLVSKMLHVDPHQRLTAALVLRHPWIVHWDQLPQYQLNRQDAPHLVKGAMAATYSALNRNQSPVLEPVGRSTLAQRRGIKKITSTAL
UniProt Q06418, sequence (whole entry, looked up): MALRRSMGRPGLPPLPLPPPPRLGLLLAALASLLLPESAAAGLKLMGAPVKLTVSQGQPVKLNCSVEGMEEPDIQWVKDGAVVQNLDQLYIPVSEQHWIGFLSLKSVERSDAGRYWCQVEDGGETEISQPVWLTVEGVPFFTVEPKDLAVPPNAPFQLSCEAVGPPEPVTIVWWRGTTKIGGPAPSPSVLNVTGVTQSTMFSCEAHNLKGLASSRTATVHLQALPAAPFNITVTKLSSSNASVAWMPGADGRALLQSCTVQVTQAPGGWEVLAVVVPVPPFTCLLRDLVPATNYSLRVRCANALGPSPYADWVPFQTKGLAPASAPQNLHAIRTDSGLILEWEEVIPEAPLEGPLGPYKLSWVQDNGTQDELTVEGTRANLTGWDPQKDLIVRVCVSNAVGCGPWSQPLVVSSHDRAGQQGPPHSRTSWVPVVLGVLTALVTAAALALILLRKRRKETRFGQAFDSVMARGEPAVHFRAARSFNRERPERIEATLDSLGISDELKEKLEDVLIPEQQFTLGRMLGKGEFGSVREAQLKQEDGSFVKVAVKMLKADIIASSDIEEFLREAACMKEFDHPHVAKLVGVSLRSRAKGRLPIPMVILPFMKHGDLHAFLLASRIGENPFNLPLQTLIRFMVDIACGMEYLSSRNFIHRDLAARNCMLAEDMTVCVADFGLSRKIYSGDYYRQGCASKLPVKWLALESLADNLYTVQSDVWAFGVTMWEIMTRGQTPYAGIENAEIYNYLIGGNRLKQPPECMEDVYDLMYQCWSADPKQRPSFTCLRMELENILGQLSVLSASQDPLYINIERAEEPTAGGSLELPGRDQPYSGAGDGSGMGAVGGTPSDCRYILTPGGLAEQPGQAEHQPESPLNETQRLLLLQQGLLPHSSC
UniProt P42680, sequence (whole entry, looked up): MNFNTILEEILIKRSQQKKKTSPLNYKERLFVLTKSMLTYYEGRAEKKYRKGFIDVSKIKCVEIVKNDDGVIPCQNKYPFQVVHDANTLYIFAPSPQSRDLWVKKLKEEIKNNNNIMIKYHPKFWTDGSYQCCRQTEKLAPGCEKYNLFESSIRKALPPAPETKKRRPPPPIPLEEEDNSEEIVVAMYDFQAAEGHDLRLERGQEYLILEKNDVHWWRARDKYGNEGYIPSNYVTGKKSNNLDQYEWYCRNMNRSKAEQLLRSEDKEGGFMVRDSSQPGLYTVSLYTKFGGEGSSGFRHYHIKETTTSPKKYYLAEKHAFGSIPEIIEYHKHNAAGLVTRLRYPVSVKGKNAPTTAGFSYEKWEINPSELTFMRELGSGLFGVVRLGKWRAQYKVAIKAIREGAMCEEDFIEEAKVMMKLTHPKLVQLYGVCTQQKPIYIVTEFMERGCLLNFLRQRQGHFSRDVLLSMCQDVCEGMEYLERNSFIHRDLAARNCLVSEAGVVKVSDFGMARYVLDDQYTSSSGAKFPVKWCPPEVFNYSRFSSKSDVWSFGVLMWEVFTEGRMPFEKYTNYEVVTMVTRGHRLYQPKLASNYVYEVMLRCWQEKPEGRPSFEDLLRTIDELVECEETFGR
UniProt P45984, sequence (whole entry, looked up): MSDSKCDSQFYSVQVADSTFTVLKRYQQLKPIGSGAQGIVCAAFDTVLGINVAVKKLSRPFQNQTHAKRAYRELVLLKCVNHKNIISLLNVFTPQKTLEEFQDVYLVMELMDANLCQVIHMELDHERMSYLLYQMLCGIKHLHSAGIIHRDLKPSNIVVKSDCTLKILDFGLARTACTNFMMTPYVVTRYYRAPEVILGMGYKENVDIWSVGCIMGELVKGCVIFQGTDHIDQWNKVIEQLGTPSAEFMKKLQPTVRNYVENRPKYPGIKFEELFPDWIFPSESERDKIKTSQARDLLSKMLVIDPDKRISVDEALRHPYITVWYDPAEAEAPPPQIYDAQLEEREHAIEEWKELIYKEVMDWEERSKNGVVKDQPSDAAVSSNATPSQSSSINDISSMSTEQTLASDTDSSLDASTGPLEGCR

Set 1 — method: SPR
Target: DDB1- and CUL4-associated factor 1 (DCAF1, Homo sapiens, UniProt Q9Y4B6)
UniProt Q9Y4B6, sequence (whole entry, looked up): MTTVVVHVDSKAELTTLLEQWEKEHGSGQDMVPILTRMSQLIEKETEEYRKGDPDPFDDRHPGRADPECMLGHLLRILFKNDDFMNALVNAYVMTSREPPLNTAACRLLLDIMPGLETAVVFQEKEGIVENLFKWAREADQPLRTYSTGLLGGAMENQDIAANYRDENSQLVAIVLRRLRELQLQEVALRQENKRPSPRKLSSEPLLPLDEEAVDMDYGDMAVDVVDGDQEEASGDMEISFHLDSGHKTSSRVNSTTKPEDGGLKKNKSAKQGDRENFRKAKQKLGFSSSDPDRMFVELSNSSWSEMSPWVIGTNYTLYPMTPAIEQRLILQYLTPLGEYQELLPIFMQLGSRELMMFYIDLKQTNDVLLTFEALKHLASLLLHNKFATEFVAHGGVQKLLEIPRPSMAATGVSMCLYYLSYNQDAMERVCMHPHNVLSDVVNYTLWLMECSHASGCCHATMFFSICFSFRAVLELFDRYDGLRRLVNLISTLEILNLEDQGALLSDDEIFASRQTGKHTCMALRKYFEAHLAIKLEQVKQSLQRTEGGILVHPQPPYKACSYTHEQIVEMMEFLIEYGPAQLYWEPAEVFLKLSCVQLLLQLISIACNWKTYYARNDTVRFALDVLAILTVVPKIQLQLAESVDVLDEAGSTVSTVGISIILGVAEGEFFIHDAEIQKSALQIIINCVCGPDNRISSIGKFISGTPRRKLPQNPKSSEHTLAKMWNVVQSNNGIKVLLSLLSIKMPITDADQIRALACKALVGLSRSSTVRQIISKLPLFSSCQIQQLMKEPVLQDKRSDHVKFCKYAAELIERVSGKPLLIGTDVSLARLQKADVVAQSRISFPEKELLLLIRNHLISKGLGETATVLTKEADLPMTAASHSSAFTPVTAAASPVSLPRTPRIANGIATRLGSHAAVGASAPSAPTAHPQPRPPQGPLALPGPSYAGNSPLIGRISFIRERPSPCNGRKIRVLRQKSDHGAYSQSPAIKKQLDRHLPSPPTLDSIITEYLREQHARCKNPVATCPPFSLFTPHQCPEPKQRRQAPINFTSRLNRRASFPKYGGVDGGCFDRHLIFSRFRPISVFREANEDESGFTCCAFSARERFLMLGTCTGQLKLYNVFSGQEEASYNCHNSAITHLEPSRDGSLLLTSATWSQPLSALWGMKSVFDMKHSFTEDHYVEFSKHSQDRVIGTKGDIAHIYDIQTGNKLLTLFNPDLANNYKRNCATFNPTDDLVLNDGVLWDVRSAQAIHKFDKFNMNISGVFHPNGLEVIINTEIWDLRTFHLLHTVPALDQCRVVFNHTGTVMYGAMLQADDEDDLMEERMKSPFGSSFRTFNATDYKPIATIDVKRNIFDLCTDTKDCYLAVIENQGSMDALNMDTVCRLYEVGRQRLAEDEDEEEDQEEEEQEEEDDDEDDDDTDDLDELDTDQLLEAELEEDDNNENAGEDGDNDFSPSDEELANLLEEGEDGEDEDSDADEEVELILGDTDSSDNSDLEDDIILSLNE
| Compound | dissociation rate constant |
| --- | --- |
| C[C@@H]1CN(c2ccc(-c3cc(C(=O)NCCCNC(=O)/C=C/c4[nH]cc(C(=O)N[C@@H](CC(N)=O)c5ccc(F)c(Cl)c5)c4-c4ccc(Cl)cc4F)ccc3F)cc2NC(=O)c2c[nH]c(=O)cc2C(F)(F)F)C[C@H](C)N1C | 0.0006 s⁻¹ |
| C[C@@H]1CN(c2ccc(-c3cc(C(=O)NCCOCCOCCOCCOCCNC(=O)/C=C/c4[nH]cc(C(=O)N[C@@H](CC(N)=O)c5ccc(F)c(Cl)c5)c4-c4ccc(Cl)cc4F)ccc3F)cc2NC(=O)c2c[nH]c(=O)cc2C(F)(F)F)C[C@H](C)N1C | 0.0091 s⁻¹ |
| C[C@@H]1CN(c2ccc(-c3cc(C(=O)NCCOCCOCCOCCOCCOCCOCCNC(=O)/C=C/c4[nH]cc(C(=O)N[C@@H](CC(N)=O)c5ccc(F)c(Cl)c5)c4-c4ccc(Cl)cc4F)ccc3F)cc2NC(=O)c2ccc(F)cc2C(F)(F)F)C[C@H](C)N1C | 0.0123 s⁻¹ |

Set 2 — tested at: 1 µM
Structure (SMILES): CN1CCN(C(=O)c2ccc(NC(=O)Nc3ccc(N(C)c4ccnc(Nc5ccc(CS(C)(=O)=O)cc5)n4)cc3)cc2)CC1
| target | effect on | method | remaining binding [%] |
| --- | --- | --- | --- |
| MAPK9 (Homo sapiens, UniProt P45984) | binding | competition with immobilised ligand | 19 |
| CDC42BPB (Homo sapiens, UniProt Q9Y5S2) | binding | competition with immobilised ligand | 86 |
| Non-receptor tyrosine-protein kinase TYK2, JH1 (TYK2, Homo sapiens, UniProt P29597) | cell-free assay | competition with immobilised ligand | 4.2 |
| STK17B (Homo sapiens, UniProt O94768) | binding | – | 100 |
| HCK (Homo sapiens, UniProt P08631) | binding | competition with immobilised ligand | 100 |
| ACVR2A (Homo sapiens, UniProt P27037) | binding | competition with immobilised ligand | 78 |

Set 3 — species: human; matrix: microsomes or S9; tested at: 2 µM; time: 0.5 h
| Compound | remaining compound [%] |
| --- | --- |
| CC(C)n1nc(-c2ccc3ncccc3c2)c2cnc3cc(F)ccc3c21 | 31.1 |
| Cn1c(CN2CCN(C(=O)c3ccccc3)CC2)nc2cc(NC(=O)c3ccccc3[N+](=O)[O-])ccc21 | > 99 |
| N=C(N)NC(=O)c1cc2c(-c3cccc(Cl)c3)cccc2s1 | > 100 |
| CCOC(=O)C1(C(=O)OCC)Cc2ccccc2C(C)(c2ccccc2)C1 (stereo not shown) | 12.9 |
| c1ccc(-n2ncc3c(Nc4cccc5ccccc45)ncnc32)cc1 | 31.2 |

Set 4 — cell line: HaCaT; tested at: 100 µM; time: 18 h
| SMILES | viability [%] |
| --- | --- |
| CNCC[C@@H](Oc1ccccc1C)c1ccccc1 | 77 |
| COc1ccccc1OCC(O)CO (stereo not shown) | 108 |
| CC(C)N(CCCCOCC(=O)NS(C)(=O)=O)c1cnc(-c2ccccc2)c(-c2ccccc2)n1 | 67.4 |
| CNCc1cc(-c2ccccc2F)n(S(=O)(=O)c2cccnc2)c1 | 99.9 |
| CNC1(C)C2CCC(C2)C1(C)C (stereo not shown) | 120 |
| O=C(c1ccccc1)c1ccc2n1CCC2C(=O)O (stereo not shown) | 41.1 |

Set 5 — effect on: enzyme activity; mode: inhibitor; tested at: 0.5 µM; baseline: control
SMILES: CC(C)c1nn(-c2c(Cl)cccc2Cl)c2nc(Cc3ccc(OCCO)cc3)[nH]c(=O)c12
| target | remaining activity [%] |
| --- | --- |
| Cyclin-dependent kinase 2, with cyclin E (CDK2, Homo sapiens, UniProt P24941) | 8.6 |
| RPS6KB2 (Homo sapiens, UniProt Q9UBS0) | 106 |
| EPHB3 (Homo sapiens, UniProt P54753) | 92.6 |
| MARK1 (Homo sapiens, UniProt Q9P0L2) | 93.3 |
| JAK1 (Homo sapiens, UniProt P23458) | 101 |
| IGF1R (Homo sapiens, UniProt P08069) | 24.8 |
| DYRK1A (Homo sapiens, UniProt Q13627) | 105 |
| BRSK2 (Homo sapiens, UniProt Q8IWQ3) | 98.3 |
| YES1 (Homo sapiens, UniProt P07947) | 86.3 |
| EPHA2 (Homo sapiens, UniProt P29317) | 100 |
| MUSK (Homo sapiens, UniProt O15146) | 96.2 |
| ACVRL1 (Homo sapiens, UniProt P37023) | 103 |
| SGK2 (Homo sapiens, UniProt Q9HBY8) | 101 |
| MELK (Homo sapiens, UniProt Q14680) | 84 |
| RPS6KA3 (Homo sapiens, UniProt P51812) | 88.4 |
| CLK1 (Homo sapiens, UniProt P49759) | 94.7 |
| TEC (Homo sapiens, UniProt P42680) | 105 |
| MAP3K20 (Homo sapiens, UniProt Q9NYL2) | 94.4 |
| TYRO3 (Homo sapiens, UniProt Q06418) | 97.8 |
| CSNK1D (Homo sapiens, UniProt P48730) | 97.1 |
| CSNK1E (Homo sapiens, UniProt P49674) | 83.6 |
| Cyclin-dependent kinase 5, with p35 (CDK5, Homo sapiens, UniProt Q00535) | 9.64 |
| SRPK1 (Homo sapiens, UniProt Q96SB4) | 97.4 |
| CAMK1 (Homo sapiens, UniProt Q14012) | 85.1 |
| PAK1 (Homo sapiens, UniProt Q13153) | 89.7 |

Set 6 — effect on: cell-free assay; method: competition with immobilised ligand; tested at: 1 µM
Compound: O=C1NC(c2ccccn2)Sc2ccccc21 (stereo not shown)
| target | remaining binding |
| --- | --- |
| MAP2K6 (Homo sapiens, UniProt P52564) | 100% |
| FLT3 (Homo sapiens, UniProt P36888) | 77% |
| MAPKAPK2 (Homo sapiens, UniProt P49137) | 100% |
| STK38L (Homo sapiens, UniProt Q9Y2H1) | 58% |
| WEE2 (Homo sapiens, UniProt P0C1S8) | 85% |

Set 7 — mode: inhibitor; tested at: 10 µM; baseline: control
Target: Diamine acetyltransferase 1 (Homo sapiens, UniProt P21673)
Construct (P21673 1-171): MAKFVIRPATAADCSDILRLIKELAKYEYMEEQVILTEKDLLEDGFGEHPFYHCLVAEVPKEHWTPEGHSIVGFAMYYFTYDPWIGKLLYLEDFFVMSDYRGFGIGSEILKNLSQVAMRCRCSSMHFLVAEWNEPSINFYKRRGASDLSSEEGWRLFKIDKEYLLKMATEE
| Compound | remaining activity [%] |
| --- | --- |
| CC(C)[C@@H](C)CC[C@@H](C)[C@H]1CCC2=C3CC[C@H]4C[C@@H](O)CC[C@]4(C)[C@H]3CC[C@@]21C | 82.5 |
| CCCCCCCCCCCCCCCc1cccc(O)c1C(=O)O | 112 |
| COc1ccc(-c2cc(=O)c3c(OC)cc(OC)cc3o2)cc1 | 88.7 |
| CC(C)=CCC[C@@H](C(=O)O)[C@H]1CC[C@@]2(C)C3=CC[C@H]4C(C)(C)[C@@H](O)CC[C@]4(C)C3=CC[C@]12C | 101 |
| COc1ccc2cc3[n+](cc2c1OC)CCc1cc2c(cc1-3)OCO2 | 73.7 |

A few entries again (set 1):
| Compound | dissociation rate constant |
| --- | --- |
| C[C@@H]1CN(c2ccc(-c3cc(C(=O)NCCOCCOCCOCCOCCNC(=O)/C=C/c4[nH]cc(C(=O)N[C@@H](CC(N)=O)c5ccc(F)c(Cl)c5)c4-c4ccc(Cl)cc4F)ccc3F)cc2NC(=O)c2c[nH]c(=O)cc2C(F)(F)F)C[C@H](C)N1C | 0.0091 s⁻¹ |
| C[C@@H]1CN(c2ccc(-c3cc(C(=O)NCCCNC(=O)/C=C/c4[nH]cc(C(=O)N[C@@H](CC(N)=O)c5ccc(F)c(Cl)c5)c4-c4ccc(Cl)cc4F)ccc3F)cc2NC(=O)c2c[nH]c(=O)cc2C(F)(F)F)C[C@H](C)N1C | 0.0006 s⁻¹ |
| C[C@@H]1CN(c2ccc(-c3cc(C(=O)NCCOCCOCCOCCOCCOCCOCCNC(=O)/C=C/c4[nH]cc(C(=O)N[C@@H](CC(N)=O)c5ccc(F)c(Cl)c5)c4-c4ccc(Cl)cc4F)ccc3F)cc2NC(=O)c2ccc(F)cc2C(F)(F)F)C[C@H](C)N1C | 0.0123 s⁻¹ |
